Published values of several laboratories.
Compare with care: the assays were run in different laboratories. ± marks the error that the study gave.

Structure (SMILES)	cell line	test	conditions	IC50
COc1ccc(-c2oc3c(CC=C(C)C)c(O[C@@H]4O[C@H](CO)[C@@H](O)[C@H](O)[C@H]4O)cc(O)c3c(=O)c2O[C@@H]2O[C@@H](C)[C@H](O)[C@@H](O)[C@H]2O[C@@H]2O[C@@H](C)[C@H](O)[C@@H](O)[C@H]2O)cc1	HEK293T	cell viability, MTT	48 h	> 100 µM
Cc1cc(C)c(-n2ccn(-c3c(C)cc(C)cc3C)c2=[Se])c(C)c1.[Cl][Ag]	A-431	cell growth or viability, MTT	72 h	0.4 µM
CC[C@@]1(O)C(=O)OCc2c1cc1n(c2=O)Cc2c-1nc1cc(F)c(C)c3c1c2[C@@H](NC(=O)CO)CC3	KPL4	cell growth or viability, ATP luminescence	5 days	0.004 µM
C=C(C)CC(OC)C(O)C(=O)NC(OC)C1CC(=NOC)C(C)(C)C(CC(O)C(C)C2Cc3c(C)c(O)cc(O)c3C(=O)O2)O1 (single isomer, unassigned; (+))	IMR-90	cell growth or viability		0.046 µM
CC(C)C[C@H](NC(=O)CCNc1ccc([N+](=O)[O-])c2nonc12)C(=O)N[C@@H](CC(C)C)C(=O)N[C@@H](CC(C)C)C(=O)N[C@@H](CC(C)C)C(=O)N[C@@H](Cc1ccc(OP(=O)(O)O)cc1)C(=O)O	SJSA-1	cell viability, MTT	24 h	101 µM
CC(C)C[C@H](NC(=O)[C@H](CCCCN)NC(=O)[C@H](CC(C)C)NC(=O)[C@H](CC(C)C)NC(=O)[C@H](CCCCN)NC(=O)[C@H](CCCCN)NC(=O)[C@H](CC(C)C)NC(=O)[C@H](CC(C)C)NC(=O)[C@H](CCCCN)NC(=O)[C@H](CC(C)C)NC(=O)[C@H](CC(C)C)NC(=O)[C@H](CCCCN)NC(=O)[C@H](CCCCN)NC(=O)[C@H](CC(C)C)NC(=O)[C@@H](N)CSSC[C@H](N)C(=O)N[C@@H](CC(C)C)C(=O)N[C@@H](CCC(=O)O)C(=O)N[C@@H](CCC(=O)O)C(=O)N[C@@H](CC(C)C)C(=O)N[C@@H](CC(C)C)C(=O)N[C@@H](Cc1c[nH]cn1)C(=O)N[C@@H](Cc1c[nH]cn1)C(=O)N[C@@H](CC(C)C)C(=O)N[C@@H](CCC(=O)O)C(=O)N[C@@H](CCC(=O)O)C(=O)N[C@@H](CC(C)C)C(=O)N[C@@H](CC(C)C)C(=O)N[C@@H](Cc1c[nH]cn1)C(=O)N[C@@H](Cc1c[nH]cn1)C(N)=O)C(N)=O	HK-2	cell growth or viability, MTT	pH 7.4	> 100 µM
O=C1[O][Pt]2([OH])([OH])([NH]C3CCCCC3[NH]2)[O]C1=O (stereo not shown)	A2780	cell growth or viability, resazurin	72 h	4.03 µM
CCCCCCN(CCCCCC)C1=[S+][Au-]2([S]1)[c]1ccccc1-c1cccc[c]12	BT-333 glioblastoma	MTT	72 h	53.7 ± 0.03 µM
O=C(Cc1ccc2ccccc2c1)N[C@H](Cc1ccccc1)C(=O)N[C@H](Cc1ccccc1)C(=O)N[C@H](Cc1ccc(O)cc1)C(=O)N[C@H](Cc1ccc(OP(=O)(O)O)cc1)C(=O)O	HS5	cell growth or viability, MTT		354 µg/mL
CC(=O)O[C@H]1C[C@@H](O)[C@H]2[C@@H]3CC[C@H]4CC(=O)C=C(CO)[C@]4(C)[C@H]3CC[C@@]21C	human PBMC	T-cell proliferation, Alamar Blue	48 h, with: phytohemagglutinin-L 7.5 µg/mL	10.2 ± 0.01 µg/mL
O=C(Cc1ccc2ccccc2c1)N[C@H](Cc1ccccc1)C(=O)N[C@H](Cc1ccc(O)cc1)C(=O)N[C@H](Cc1ccccc1)C(=O)N[C@H](Cc1ccc(O)cc1)C(=O)O	HS5	cell growth or viability, MTT		> 500 µg/mL
C[C@@H](O)[C@H](NC(=O)[C@H](CCCNC(=N)N)NC(=O)[C@H](CCCNC(=N)N)NC(=O)[C@H](CCCNC(=N)N)NC(=O)[C@@H]1CCCN1C(=O)[C@@H](N)CO)C(=O)N1CCC[C@H]1C(=O)N[C@@H](CO)C(=O)N1CCC[C@H]1C(=O)N[C@@H](CCCNC(=N)N)C(=O)N[C@@H](CCCNC(=N)N)C(=O)N[C@@H](CCCNC(=N)N)C(=O)N[C@@H](CCCNC(=N)N)C(=O)N[C@@H](CO)C(=O)N[C@@H](CCC(N)=O)C(=O)N[C@@H](CO)C(=O)N1CCC[C@H]1C(=O)N[C@@H](CCCNC(=N)N)C(=O)N[C@@H](CCCNC(=N)N)C(=O)N[C@@H](CCCNC(=N)N)C(N)=O	BT-20	cell viability, CellTiter-Blue	24 h, serum-free medium	> 100 µM
CC(C)C[C@H](NC(=O)[C@H](CC(C)C)NC(=O)[C@H](CCC(=O)O)NC(=O)[C@H](Cc1c[nH]cn1)NC(=O)[C@H](CC(C)C)NC(=O)[C@H](Cc1c[nH]cn1)NC(=O)[C@H](CCC(=O)O)NC(=O)[C@H](CC(C)C)NC(=O)[C@H](CC(C)C)NC(=O)[C@H](CCC(=O)O)NC(=O)[C@H](Cc1c[nH]cn1)NC(=O)[C@@H](N)CC(C)C)C(=O)N[C@@H](CCC(=O)O)C(=O)N[C@@H](Cc1c[nH]cn1)C(N)=O	HK-2	cell growth or viability, MTT	pH 7.4	> 100 µM
C=C(C)CC(OC)C(O)C(=O)NC(OC)C1CC(=C)C(C)(C)C(CC(O)C(C)C2Cc3c(C)c(O)cc(O)c3C(=O)O2)O1 (single isomer, unassigned; (+))	H522-T1	cell growth or viability		0.0016 µM
C#CCN[C@@H]1C=C[C@]2(O[C@H]([C@@H](CC)C(=O)[C@@H](C)[C@@H](O)[C@H](C)[C@@H]3O[C@@H]([C@@H](CC)C(=O)O)CC[C@@H]3C)[C@@H](C)C[C@H]2C)O[C@@]12CC[C@@](C)([C@H]1CC[C@](O)(CC)[C@H](C)O1)O2	HMLER CD24high/CD44low	CellTiter-Blue	72 h	2.28 ± 0.16 µM
O=C1C=CC(=O)c2ccccc21	MOLT-3	cell growth or viability, XTT	48 h	5.12 µM
CC(C)C[C@H](NC(=O)[C@H](C)NC(=O)[C@H](CCCCN)NC(=O)[C@H](C)NC(=O)[C@H](C)NC(=O)CNC(=O)[C@H](CCCCN)NC(=O)[C@H](CC(C)C)NC(=O)[C@H](CC(C)C)NC(=O)[C@H](CC(=O)O)NC(=O)[C@H](CCCCN)NC(=O)[C@H](Cc1ccccc1)NC(=O)CN)C(=O)N[C@H](C(=O)N[C@@H](CCCCN)C(=O)N[C@H](C(=O)N[C@H](C(=O)N[C@@H](CC(C)C)C(=O)N[C@@H](Cc1ccccc1)C(N)=O)C(C)C)[C@@H](C)O)C(C)C	U87	cell proliferation, CCK-8	48 h	9.25 µM
CCc1c2c(nc3ccc(O)cc13)-c1cc3c(c(=O)n1C2)COC(=O)[C@@]3(CC)OC(=O)[C@H](CC(C)C)NC(=O)[C@H](CCC(N)=O)NC(=O)[C@H](CC(C)C)NC(=O)[C@H](CCCCN)NC(=O)[C@H](CO)NC(=O)[C@H](CO)NC(=O)[C@H](Cc1c[nH]cn1)NC(=O)COCCOCCOCCNC(=O)CCCCC(=O)N1Cc2ccccc2-c2c(nnn2CCOCCOCCOCCOCCC(=O)N[C@@H](Cc2c[nH]cn2)C(=O)N[C@@H](CO)C(=O)N[C@@H](CO)C(=O)N[C@@H](CCCCN)C(=O)N[C@@H](CC(C)C)C(=O)N[C@@H](CCC(N)=O)C(=O)N[C@@H](CC(C)C)C(=O)O[C@@H](C(=O)O[C@H]2C[C@@]3(O)[C@@H](OC(=O)c4ccccc4)[C@@H]4[C@]5(OC(C)=O)CO[C@@H]5C[C@H](OC)[C@@]4(C)C(=O)[C@H](OC)C(=C2C)C3(C)C)[C@@H](NC(=O)OC(C)(C)C)c2ccccc2)-c2ccccc21	LNCaP	cell growth or viability, XTT	72 h	0.00071 µM
NC1CC1c1ccc(NC(=O)C(Cc2ccccc2)NC(=O)OCc2ccc(Br)cc2)cc1 (stereo not shown)	MV4-11 (AML)			5.3 ± 0.4 µM
C[C@H]1C(OCCCCCCCCCC[P+](c2ccccc2)(c2ccccc2)c2ccccc2)O[C@@H]2O[C@@]3(C)CCC4[C@H](C)CCC1[C@]42OO3 (stereo partly shown)	SK-OV-3	cell growth or viability, MTT	72 h	0.0653 µM
C[C@H]1[C@H](OC(=O)CCC(=O)OCCc2ccc(O)cc2)O[C@@H]2O[C@@]3(C)CC[C@H]4[C@H](C)CC[C@@H]1[C@@]24OO3	RPMI-7951	cell viability, MTT	24 h, with: deferoxamine 20 µM, 1 h before	24.5 ± 2.1 µM
CC(C)C[C@H](NC(=O)[C@H](CCCCN)NC(=O)[C@H](CC(C)C)NC(=O)[C@H](CC(C)C)NC(=O)[C@H](CCCCN)NC(=O)[C@H](CCCCN)NC(=O)[C@H](CC(C)C)NC(=O)[C@H](CC(C)C)NC(=O)[C@H](CCCCN)NC(=O)[C@H](CC(C)C)NC(=O)[C@H](CC(C)C)NC(=O)[C@H](CCCCN)NC(=O)[C@H](CCCCN)NC(=O)[C@H](CC(C)C)NC(=O)[C@@H](N)CSSC[C@H](N)C(=O)N[C@@H](CC(C)C)C(=O)N[C@@H](CCC(=O)O)C(=O)N[C@@H](Cc1c[nH]cn1)C(=O)N[C@@H](CC(C)C)C(=O)N[C@@H](CC(C)C)C(=O)N[C@@H](CCC(=O)O)C(=O)N[C@@H](Cc1c[nH]cn1)C(=O)N[C@@H](CC(C)C)C(=O)N[C@@H](CCC(=O)O)C(=O)N[C@@H](Cc1c[nH]cn1)C(=O)N[C@@H](CC(C)C)C(=O)N[C@@H](CC(C)C)C(=O)N[C@@H](CCC(=O)O)C(=O)N[C@@H](Cc1c[nH]cn1)C(N)=O)C(N)=O	RG	cell viability, MTT	0.5 h, pH 6.0	13.4 µM
C[C@H]1[C@H](OC(=O)CCC(=O)Oc2ccc(-c3cc(=S)ss3)cc2)O[C@@H]2O[C@@]3(C)CC[C@H]4[C@H](C)CC[C@@H]1[C@@]24OO3	K562/Adr	cell growth or viability, CCK-8	72 h	16.6 µM
O=C(Cc1ccc2ccccc2c1)N[C@H](Cc1ccccc1)C(=O)N[C@H](Cc1ccccc1)C(=O)N[C@H](Cc1ccc(O)cc1)C(=O)N[C@H](Cc1ccc(O)cc1)C(=O)O	A2780cis	cell growth or viability, MTT		> 500 µg/mL
Cc1cc(C)c(N2CCN(c3c(C)cc(C)cc3C)C2=[Se])c(C)c1.[Cl][Ag]	A2780	cell growth or viability, MTT	72 h	0.7 µM
CC(C)C[C@H](NC(=O)[C@H](CCCCN)NC(=O)[C@H](CC(C)C)NC(=O)[C@H](CC(C)C)NC(=O)[C@H](CCCCN)NC(=O)[C@H](CCCCN)NC(=O)[C@H](CC(C)C)NC(=O)[C@H](CC(C)C)NC(=O)[C@H](CCCCN)NC(=O)[C@H](CC(C)C)NC(=O)[C@H](CC(C)C)NC(=O)[C@H](CCCCN)NC(=O)[C@H](CCCCN)NC(=O)[C@@H](N)CC(C)C)C(N)=O	HK-2	cell growth or viability, MTT	pH 7.4	8.6 µM
O=C(N=P12CN3CN(CN(C3)C1)C2)c1cccc[c]1[Pd]([Br])([PH]12CN3CN(CN(C3)C1)C2)[PH]12CN3CN(CN(C3)C1)C2	Jurkat	cytotoxicity, MTT	24 h, 1% DMSO	374 ± 40 µM
[Cl][Ag].[Se]=c1n(C2CCCCC2)ccn1C1CCCCC1	A-431	cell growth or viability, MTT	72 h	4.1 µM
